Measured values pooled from the literature.
Numbered parts are unrelated; each lists some results of a single study.

Series 1
Target: RNA binding protein fox-1 homolog 2, RRM domain, GST-SBP tag (RBFOX2, Homo sapiens, UniProt O43251-10, residues 100-194)
Technique: RNA Bind-n-Seq
Molecule type: RNA
Matrix: in vitro
Tested at: 365 nM
Notes: natural RNA segment, single round, ends assumed
Baseline: no-protein control
Direction: higher = stronger binding
Measurement: RBNS enrichment (R)
Residues (chain): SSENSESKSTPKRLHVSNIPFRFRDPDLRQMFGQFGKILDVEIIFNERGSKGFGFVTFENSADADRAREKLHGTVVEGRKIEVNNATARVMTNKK
Strand = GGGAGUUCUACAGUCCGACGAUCCCCUUCUAAUGAAUGAAACUAGGGGAAUUUCAGGGGACAGAGAUGGGAUUUGUUGUAUGAUAAACUGUAUGUAGUUUUUAGUCUUUCUGUUUUGAGAAGCAGUGGUUGGGUGGAAUUCUCGGGUGCCAA; result = 63
Strand = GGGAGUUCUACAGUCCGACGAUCAAGAUAAAUUGGGGCCUUGUAAAAGGCCAGGGUAAAAUGUCUCAGGCAAGCAAAAGAUUGUCCCCUUCUGCAUAUGGGUAAAACUGAGACGUCCCCGUGAGCCCGAGGCUUGGAAUUCUCGGGUGCCAA; result = 0.914
Strand = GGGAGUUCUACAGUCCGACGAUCAAGUGACUUUCUGUCUGCGGCUGCUCCACAUCCCGGGCCUGCUUUUCAAGGGUAUCUGUUCUGAUACUGAAGGGAGAGUAUGCAUCUAAAAACAGCACUGUUCCCCAAGGUGGAAUUCUCGGGUGCCAA; result = 0.411
Strand = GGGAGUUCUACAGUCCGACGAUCUUAUUUUUUUCAACAUGCUUUCAACCUGUCAACAAAAACAAAACACACAAAAAAAGGGCAGUGUUUGAAGAUUGUUGAUUUUUUUCUGGGGAUAAUCUAUAUUAUAUUGAUGGAAUUCUCGGGUGCCAA; result = 0.618
Strand = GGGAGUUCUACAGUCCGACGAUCAUUUGGUUUUGUUUCUGAUUUCAUGUUCCUUUGAGGUACAGUCAGAUGAAAAUGCUGAGUUCUGAGAGAGUUCCAAUGAGGAGCUGCCUUUCAGCUUUGGAAAAUAUGCAUGGAAUUCUCGGGUGCCAA; result = 2.43
Strand = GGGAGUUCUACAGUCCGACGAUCUUUGACAGAGAAAUAUUGUUUAGACUGCAUUAUUUUUGUUCGACUCCAAAAGAUUUGCCAAAUAACAAGCGCACAUAGUGUGCACUGUUGGAGACUGAAAAUGCCUACUGUGGAAUUCUCGGGUGCCAA; result = 0.398
Strand = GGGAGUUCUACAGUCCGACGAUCGAAAGUUCCCUUUGGUCCACAGGGCCAUUUCAAGCAAGUUCAAUGACCUGGUCCCUUAGAGCUCCAUAUCCCAGUCCCAGCCCUUCUUUGCAGCUGGGCCUCUCUAUACCUGGAAUUCUCGGGUGCCAA; result = 0.377
Strand = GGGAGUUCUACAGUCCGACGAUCAGGCUGCAGCCCAGAAACUCUACCUCAUCCACACUGGUGCAGGGAGCCCUCCUUGAACUGACCUUUGAUUGGUUUCUGCUUCAACUACCAAAAUGUUAUCUCCACUUCCCUGGAAUUCUCGGGUGCCAA; result = 0.302

Series 2
Target: Fragile X messenger ribonucleoprotein 1, C-terminal low-complexity region (Fmr1, Mus musculus, UniProt P35922)
Technique: RNA Bind-n-Seq
Molecule type: RNA
Matrix: in vitro
Tested at: 200 nM
Notes: whole 134-nt RNA, ends assumed
Added: 150 mM KCl
Baseline: input library
Direction: higher = stronger binding
Measurement: log2 enrichment
Strand = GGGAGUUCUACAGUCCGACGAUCUGGCGCUGUCCUGGACUUGAUGGGGGAUGAAGCCCAGAACCUGACGAGGGGCCGGCAGCAGCUCAAGUGGUGAGUGAUCGAGUGAGCCGCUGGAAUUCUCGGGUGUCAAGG; result = -0.383
Strand = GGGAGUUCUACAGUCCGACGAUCCUGUGCUACACAUCGUAUGUACCGAAUCGGGGCCCCCCCGGCCCCCCCGGGCCCCCCCGGGAAAGUAUUAUGUUACGCCGUUCGGAUCUGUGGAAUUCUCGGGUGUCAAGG; result = -1.12
Strand = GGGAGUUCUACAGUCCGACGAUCCACAGACAACACGCACCCACACAGACACAGAGGGAAGAAAUUGGGAUGGGGACAGGGUGCACAGCAGGGCGGGGUAGGACCCCAGCCCCUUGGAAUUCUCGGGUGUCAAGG; result = 0.525
Strand = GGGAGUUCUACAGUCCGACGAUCUAACUUUAGAGGAGGAUCUGAUGGAUAUGGCAGUGGACGUGGAUUUGGGGAUGGCUAUAAUGGGUAUGGAGGAGGCCCUGGAGGUGGCAAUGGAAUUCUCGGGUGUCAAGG; result = 0.314
Strand = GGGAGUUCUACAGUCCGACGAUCAGUCCUGUGCUACACAUCGUAUGUACCGAAUCGGUUUUUGGUUUUUGGGGUUUUUGGAAAGUAUUAUGUUACGCCGUUCGGAUCUGCACUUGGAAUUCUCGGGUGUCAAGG; result = -0.502
Strand = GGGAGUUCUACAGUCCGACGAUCUGGGAGGUGUAUUUUGUUUAUUUUUUUAGCUCAUUUCCAGGGGUGGGAAUUUUUUUUUAAUAUGUGUCAUGAAUAAAGUUGUUUUUGAAAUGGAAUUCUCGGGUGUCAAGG; result = 0.377
Strand = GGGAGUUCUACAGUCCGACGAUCGUCCUGUGCUACACAUCGUAUGUACCGAAUCAAACCCCCAAACCCCCAAAUUUUUAAAAAAGUAUUAUGUUACGCCGUUCGGAUCUGCACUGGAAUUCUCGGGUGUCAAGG; result = -0.227
Strand = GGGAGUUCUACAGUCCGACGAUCCUGUGCUACACAUCGUAUGUACCGAAUCAAAGUGUGUGUGUGUGUAAAGUGUGUGUGUAAAAAAGUAUUAUGUUACGCCGUUCGGAUCUGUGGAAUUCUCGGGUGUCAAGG; result = -0.803
Strand = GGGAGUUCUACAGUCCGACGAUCUGGCCCUGGUGGCAUGCGGGGAGGAAGAGGUGGCCGCAUGGAUCGUGGUGGUCCCGGUGGAAUGUUCAGAGGUGGCCGUGGUGGAGACAGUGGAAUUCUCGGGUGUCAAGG; result = 0.284

Series 3
Target: Histone acetyltransferase KAT6A, both winged helices, GST fusion (KAT6A, Homo sapiens, UniProt Q92794, residues 1-181)
Technique: protein binding microarray
Molecule type: double-stranded DNA, one strand shown
Matrix: in vitro
Tested at: not given
Notes: 8-mer, flanks averaged, mean of 2 arrays, mostly near background
Baseline: not given
Direction: higher = stronger binding
Measurement: E-score
Construct (chain): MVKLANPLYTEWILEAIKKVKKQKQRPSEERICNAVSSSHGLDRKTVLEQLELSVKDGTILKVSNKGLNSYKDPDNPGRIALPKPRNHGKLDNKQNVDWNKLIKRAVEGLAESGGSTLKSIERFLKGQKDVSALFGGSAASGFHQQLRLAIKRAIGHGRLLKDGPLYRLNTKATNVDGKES
Strand = CGATCCGC; result = 0.181
Strand = AACTACCG; result = 0.118
Strand = ATGGTTCG; result = 0.15
Strand = GAGCGGGA; result = 0.259
Strand = GGTAGATA; result = 0.0115
Strand = GTTCAACA; result = -0.0517
Strand = CGTCCGCA; result = 0.223
Strand = GGTTAGAC; result = -0.0606
Strand = GGACGATA; result = -0.143
Strand = CATTTCCC; result = 0.0761
Strand = CCAGCGTA; result = 0.0963
Strand = AACCACAC; result = -0.0437
Strand = CAAATTCC; result = -0.107
Strand = GTGCCAAA; result = -0.124
Strand = AGATCTCG; result = -0.0162
Strand = GAATCGCC; result = 0.119
Strand = AAACGCGA; result = 0.153
Strand = ACAGACAT; result = -0.0702
Strand = AACTTACC; result = -0.0949
Strand = AACGTTAA; result = 0.114
Strand = CAGACCAG; result = -0.111
Strand = CGGCGTAC; result = 0.291
Strand = GCCCTATA; result = -0.0932
Strand = AGTGCTCG; result = -0.142
Strand = CGCCCACC; result = -0.141

Series 4
Target: Sal-like protein 4, full length isoform B (SALL4, Homo sapiens, UniProt Q9UJQ4-2, residues 1-616)
Technique: universal PBM
Molecule type: double-stranded DNA, one strand shown
Matrix: in vitro
Tested at: not given
Notes: 8-mer, flanks averaged, mean of replicates
Direction: higher = stronger binding
Measurement: E-score
Strand = AGCAAGCT; result = -0.168
Strand = CGGCCCGA; result = -0.373
Strand = ACTCAATC; result = 0.0378
Strand = ATAGGAAC; result = 0.16
Strand = TACACTGA; result = 0.0982
Strand = GTTGATAA; result = 0.261
Strand = CAGTCCCA; result = -0.164
Strand = AAGAACAC; result = 0.00299
Strand = CGGTACTC; result = -0.098
Strand = ATCCCACG; result = -0.207
Strand = GTTTGGGA; result = -0.0391
Strand = AAAATCAG; result = 0.0459
Strand = AGATGGAG; result = -0.1
Strand = GGGTAACA; result = -0.0419
Strand = GCAGGGGC; result = -0.346
Strand = TCGACCGA; result = -0.181
Strand = ATCTGTCC; result = -0.149
Strand = AACATAAG; result = 0.243
Strand = GCGCGATA; result = -0.00297
Strand = GCTCGGCA; result = -0.176
Strand = ACGATTGA; result = 0.0579
Strand = ACAGGGAG; result = -0.214

Some of these lines once more (series 3):
Strand = GCCCTATA; result = -0.0932
Strand = CATTTCCC; result = 0.0761
Strand = AACCACAC; result = -0.0437
Strand = GGTAGATA; result = 0.0115
Strand = CGCCCACC; result = -0.141
Strand = AACTACCG; result = 0.118
Strand = CGGCGTAC; result = 0.291
